{"data": "Assay results pooled from the literature", "note": "A part holds a random share of what one study measured. Changes are numbered by the printed parent chain."}
{"data": "Block 1", "target": "RING finger protein unkempt homolog, zinc fingers 1-6, GST-SBP tag (UNK, Homo sapiens, UniProt Q9C0B0, residues 30-357)", "method": "RNA Bind-n-Seq", "form": "RNA", "matrix": "in vitro", "tested at": "not given", "setting": "RNA with constant flanks, human and mouse sites, ends assumed", "baseline": "input RNA pool", "direction": "higher = stronger binding", "shared flanks, not repeated": "GGGAGUUCUACAGUCCGACGAUC … CAACAGAGGAUUGAGCAUCA", "chain of UniProt Q9C0B0 (30-357, looked up)": "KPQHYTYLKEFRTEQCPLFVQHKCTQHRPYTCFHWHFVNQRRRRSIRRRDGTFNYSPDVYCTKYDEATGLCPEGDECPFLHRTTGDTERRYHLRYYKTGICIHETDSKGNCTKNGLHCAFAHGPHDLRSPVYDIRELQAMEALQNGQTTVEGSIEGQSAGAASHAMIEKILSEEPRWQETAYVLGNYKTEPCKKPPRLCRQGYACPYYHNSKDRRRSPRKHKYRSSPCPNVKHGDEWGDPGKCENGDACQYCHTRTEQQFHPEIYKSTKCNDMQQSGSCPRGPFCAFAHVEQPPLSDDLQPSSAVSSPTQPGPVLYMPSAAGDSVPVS"}
{"Oligonucleotide": "ACUACGCUGCGACAACGCAGAAAGCCAGUCUUCCACUUGUCCCAUGAGGAACGUGUCCAACAUAGAAAUAUUAAAGACCUUAAACUGGCCUUCAGUGAGUUCUACCUCAGUCUAAUCCUG", "bound/input enrichment": "0.253 ratio"}
{"Oligonucleotide": "AUUUUACUUACAGAACCUCCCAUGAAUCCAACCAAAAACAGAGAGAAGAUUGUAGAGGUAAUGUUUGAAACUUACCAGUUUUCUGGUGUGUAUGUAGCCAUCCAGGCAGUUCUGACUUUG", "bound/input enrichment": "0.295 ratio"}
{"Oligonucleotide": "GUCUCCUUUCUUAAAGAAGUGCCACCCCCUUUUACUUUGGUUUGCUGUCGGAGGUUGUUUGAUGAUGAAGCUUCUGUAGAUGAACCAAGGCGCACUGAAACCUCUCUUCCUGAGACAGAG", "bound/input enrichment": "0.383 ratio"}
{"Oligonucleotide": "GCAGAACUCCUAAAAAAUGCAGAUGAAUUAGUCAAACAGAAAAUUCAUCCCACAUCAGUUAUUAGUGGCUAUCGACUUGCUUGCAAGGAAGCAGUGCGUUAUAUCAAUGAAAACCUAAUU", "bound/input enrichment": "0.172 ratio"}
{"Oligonucleotide": "GCACGGCGUUCUUCUUACCGAGUACAGUCAGAACCCCAGGAAGAGAGUUGGUAUGACUGUCACAGGGAAACAACUGCAAGUUUUUCUGAUACUUACCAGGAUUAUGAGGAGUACUGGAGA", "bound/input enrichment": "0.215 ratio"}
{"Oligonucleotide": "GAAGGUUUAGUUGUGAGCUUCAGAUUUUGUGAACUCCAGAUGUUGUGCGGUGUUUUUUUUUUUUUUUAAGACAACAACUAAAAAAAAUGCAAGGAAUAUGUACACUGGAACUGUAGUGGU", "bound/input enrichment": "0.401 ratio"}
{"Oligonucleotide": "AACCACCUCAUCCAAAAUAUCCCGGGCUUCUGGGGGCAAGCAUUUCAGAACCAUCCCCAGCUAGCAUCCUUUCUGAAUAGCCAAGAGAAAGAGGUACUGAGCUACUUAAACAGCUUGGAA", "bound/input enrichment": "0.458 ratio"}
{"Oligonucleotide": "UUUUGUUUCCAGGGACAAAUUAAAUUUGCAUGAUUGUCCAAAAAGAGUCUCGAUUUACAGAUGUUAACUCUAUAUAAAGGAAUGUAGAAAAAUUGAAAUCUUAAGGUACACGACUAAGCA", "bound/input enrichment": "0.439 ratio"}
{"data": "Block 2", "target": "Fragile X messenger ribonucleoprotein 1, C-terminal low-complexity region (Fmr1, Mus musculus, UniProt P35922)", "method": "RNA Bind-n-Seq", "form": "RNA", "matrix": "in vitro", "tested at": "200 nM", "setting": "whole 134-nt RNA, ends assumed", "with": "150 mM KCl", "baseline": "input library", "direction": "higher = stronger binding", "shared flanks, not repeated": "GGGAGUUCUACAGUCCGACGAUC … UGGAAUUCUCGGGUGUCAAGG"}
{"Oligonucleotide": "CCUGUGCUACACAUCGUAUGUACCGAAUCGGAAAAAAAGGGAAAAAAAGGGGAAAAAAAGGAAAGUAUUAUGUUACGCCGUUCGGAUCUG", "log2 enrichment": -0.959}
{"Oligonucleotide": "UGGGAGGUAGAUUUUGUUUAUUUUUUUAGCUCAUUUCCAGGGGUGGGAAUUUUUUUUUAAUAUGUGUCAUGAAUAAAGUUGUUUUUGAAA", "log2 enrichment": -0.486}
{"Oligonucleotide": "AAGUCCUGUGCUACACAUCGUAUGUACCGAAUCAAAUUUAAAUUUUUAAAUUUAAAAAAGUAUUAUGUUACGCCGUUCGGAUCUGCACUU", "log2 enrichment": -1.45}
{"Oligonucleotide": "GCAGGAAGUAAAAACAAAUGGAAAUGCUUCGGAUAGUGGCAGGGGUGGGGGUUGCUAAGGAAAUGGUGGGAUGGGAGUGGGUAAAGAGUU", "log2 enrichment": 0.0603}
{"Oligonucleotide": "AGUCCUGUGCUACACAUCGUAUGUACCGAAUCGGGCCCCCGGCCCCCGGGCCCCCGGAAAGUAUUAUGUUACGCCGUUCGGAUCUGCACU", "log2 enrichment": -0.579}
{"Oligonucleotide": "AGUCCUGUGCUACACAUCGUAUGUACCGAAUCGGGCCCCGGGGCCCCGGGCCCCGGGAAAGUAUUAUGUUACGCCGUUCGGAUCUGCACU", "log2 enrichment": -0.762}
{"Oligonucleotide": "UGGGAGGUGGAUUUUGUUUAUUUUUUUAGCUCAUUUCCAGGGGUGGGAAUUUUUUUUUAAUAUGUGUCAUGAAUAAAGUUGUUUUUGAGA", "log2 enrichment": 0.641}
{"Oligonucleotide": "ACCAUGCAGGUGGGCAUCUUUGGGAAGUGGGGCAAGGGGGGGAUAGGGAGUGGGGUAACACUUUGGGAACAGGUGGUCCCAGGUCGUUUC", "log2 enrichment": 0.873}
{"Oligonucleotide": "UGGGAGGUGGAUUUUGUUUAUUCUUUUAGCUCAUUUCCAGGGGUGGGAAUUUUUUUUUAAUAUGUGUCAUGAAUAAAGUUGUUUUUGAAA", "log2 enrichment": 0.195}
{"data": "Block 3", "target": "Sal-like protein 4, full length isoform A (SALL4, Homo sapiens, UniProt Q9UJQ4, residues 1-1053)", "method": "universal PBM", "form": "double-stranded DNA, one strand shown", "matrix": "in vitro", "tested at": "600 nM", "setting": "8-mer, flanks averaged, mean of replicates", "direction": "higher = stronger binding", "chain of UniProt Q9UJQ4 (whole entry, looked up)": "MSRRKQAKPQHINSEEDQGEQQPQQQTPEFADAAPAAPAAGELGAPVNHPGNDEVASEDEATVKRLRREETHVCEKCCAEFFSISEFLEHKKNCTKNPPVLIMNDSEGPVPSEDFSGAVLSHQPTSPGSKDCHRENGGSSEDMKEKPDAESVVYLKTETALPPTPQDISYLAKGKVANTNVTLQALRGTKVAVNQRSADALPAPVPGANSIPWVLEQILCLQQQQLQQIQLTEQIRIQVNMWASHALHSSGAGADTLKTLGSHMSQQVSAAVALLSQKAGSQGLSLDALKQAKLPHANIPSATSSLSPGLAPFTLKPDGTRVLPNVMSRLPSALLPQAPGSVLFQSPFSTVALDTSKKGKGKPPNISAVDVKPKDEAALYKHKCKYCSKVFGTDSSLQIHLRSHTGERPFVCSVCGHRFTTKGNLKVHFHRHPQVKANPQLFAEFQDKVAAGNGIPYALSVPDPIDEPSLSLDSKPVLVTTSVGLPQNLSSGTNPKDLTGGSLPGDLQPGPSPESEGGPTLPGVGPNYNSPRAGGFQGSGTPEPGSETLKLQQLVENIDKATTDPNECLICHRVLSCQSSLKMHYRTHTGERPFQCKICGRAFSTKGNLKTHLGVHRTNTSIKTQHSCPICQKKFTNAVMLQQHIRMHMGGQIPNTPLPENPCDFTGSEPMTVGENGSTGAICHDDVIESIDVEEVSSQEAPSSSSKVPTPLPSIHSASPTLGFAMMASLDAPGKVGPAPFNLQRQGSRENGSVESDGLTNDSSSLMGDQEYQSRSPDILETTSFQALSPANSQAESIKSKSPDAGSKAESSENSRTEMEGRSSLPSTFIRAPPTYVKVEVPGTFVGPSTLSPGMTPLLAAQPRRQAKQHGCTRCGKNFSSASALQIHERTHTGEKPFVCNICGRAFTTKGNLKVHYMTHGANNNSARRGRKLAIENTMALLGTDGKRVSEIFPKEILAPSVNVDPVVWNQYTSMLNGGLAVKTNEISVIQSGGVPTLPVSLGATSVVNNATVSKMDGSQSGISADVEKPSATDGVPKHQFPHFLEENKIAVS"}
{"Oligonucleotide": "AGCTAGCA", "E-score": -0.18}
{"Oligonucleotide": "CTGGCACA", "E-score": -0.0941}
{"Oligonucleotide": "CTCACAAG", "E-score": -0.0586}
{"Oligonucleotide": "AAATCATA", "E-score": 0.38}
{"Oligonucleotide": "AATTGTTA", "E-score": 0.34}
{"Oligonucleotide": "CAAGCAGA", "E-score": 0.00187}
{"Oligonucleotide": "AGGTCTGC", "E-score": -0.131}
{"Oligonucleotide": "GATGGTGC", "E-score": -0.263}
{"Oligonucleotide": "CTAGAATA", "E-score": 0.299}
{"Oligonucleotide": "ATCAGTTA", "E-score": 0.244}
{"Oligonucleotide": "ATGATGAA", "E-score": 0.274}
{"Oligonucleotide": "TATGGGAA", "E-score": 0.15}
{"Oligonucleotide": "CAAGACAA", "E-score": 0.0908}
{"Oligonucleotide": "GAGTGCCC", "E-score": -0.335}
{"Oligonucleotide": "CCCTGCCC", "E-score": -0.277}
{"Oligonucleotide": "TGTCAAAA", "E-score": 0.264}
{"Oligonucleotide": "ATCACTCA", "E-score": 0.12}
{"Oligonucleotide": "CCAATCCC", "E-score": -0.184}
{"Oligonucleotide": "CCACGCTC", "E-score": -0.351}
{"Oligonucleotide": "CGGCAGCA", "E-score": -0.188}
{"Oligonucleotide": "CCCTTAGA", "E-score": -0.122}
{"Oligonucleotide": "GCAGCCGC", "E-score": -0.268}
{"Oligonucleotide": "ATGGCAAA", "E-score": 0.184}
{"Oligonucleotide": "GAAGCATC", "E-score": -0.0292}
{"Oligonucleotide": "ACAAATGA", "E-score": 0.26}
{"data": "Block 4", "target": "CCNE1, cyclin fold, Cln2 fusion (human)", "method": "yeast growth competition, sequencing", "matrix": "yeast", "setting": "weak parent motif", "baseline": "not given", "direction": "higher = stronger binding", "starting sequence": "MASTL docking peptide (human); PMIAKNLMCELDE"}
{"Substitution": "PMIAKNLMRELDE [C9R]", "normalised enrichment score": 0.082}
{"Substitution": "PMIAKNLMCELEE [D12E]", "normalised enrichment score": 0.138}
{"Substitution": "PMIHKNLMCELDE [A4H]", "normalised enrichment score": 0.101}
{"Substitution": "PMIATNLMCELDE [K5T]", "normalised enrichment score": 0.0863}
{"Substitution": "PMQAKNLMCELDE [I3Q]", "normalised enrichment score": -0.127}
{"Substitution": "PMLAKNLMCELDE [I3L]", "normalised enrichment score": 0.126}
{"Substitution": "PMIAKNLMCEPDE [L11P]", "normalised enrichment score": 0.099}
{"Substitution": "PDIAKNLMCELDE [M2D]", "normalised enrichment score": 0.188}
{"Substitution": "PPIAKNLMCELDE [M2P]", "normalised enrichment score": 0.0837}
{"Substitution": "PMIAKCLMCELDE [N6C]", "normalised enrichment score": -0.00926}
{"Substitution": "PMEAKNLMCELDE [I3E]", "normalised enrichment score": 0.101}
{"Substitution": "PMIAKNLMPELDE [C9P]", "normalised enrichment score": -0.0305}
{"Substitution": "PMIAKNLWCELDE [M8W]", "normalised enrichment score": 0.45}
{"Substitution": "PWIAKNLMCELDE [M2W]", "normalised enrichment score": -0.125}
{"Substitution": "PMIAKNLMCEMDE [L11M]", "normalised enrichment score": -0.357}
{"Substitution": "PMIAKNLMCPLDE [E10P]", "normalised enrichment score": -0.00272}
{"Substitution": "PMIAKYLMCELDE [N6Y]", "normalised enrichment score": 0.115}
{"Substitution": "PMAAKNLMCELDE [I3A]", "normalised enrichment score": -0.182}
{"note": "Repeated from above (block 3):"}
{"Oligonucleotide": "ATGATGAA", "E-score": 0.274}
{"Oligonucleotide": "CTAGAATA", "E-score": 0.299}
{"Oligonucleotide": "ATCAGTTA", "E-score": 0.244}
{"Oligonucleotide": "CCCTTAGA", "E-score": -0.122}
{"Oligonucleotide": "ATGGCAAA", "E-score": 0.184}
{"Oligonucleotide": "CGGCAGCA", "E-score": -0.188}
{"Oligonucleotide": "TGTCAAAA", "E-score": 0.264}
{"Oligonucleotide": "CTCACAAG", "E-score": -0.0586}
{"Oligonucleotide": "ACAAATGA", "E-score": 0.26}
